Measured values of several laboratories.
Numbered parts are unrelated; each lists some results of a single study. Changes are numbered by the printed parent chain.

Set 1
Target: Histone acetyltransferase KAT6A, winged helix 1, GST fusion (KAT6A, Homo sapiens, UniProt Q92794, residues 1-85)
Method: protein binding microarray
Molecule type: double-stranded DNA, one strand shown
Matrix: in vitro
Tested at: not given
Setting: 8-mer, flanks averaged, mean of 2 arrays, mostly near background
Baseline: not given
Reading: higher = stronger binding
Target sequence (chain): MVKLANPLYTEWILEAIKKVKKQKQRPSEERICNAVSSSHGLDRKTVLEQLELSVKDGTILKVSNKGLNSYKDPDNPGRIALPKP
Oligonucleotide	E-score
CATGATAC	-0.154
GAAATCGC	-0.0345
CTCGTTCC	-0.0793
ACTCCAAG	-0.168
AGGGACTG	-0.0644
GTGGGTAA	-0.077
GGTCGCTA	0.145
AGGCTGGC	-0.109
ATTGTTGC	-0.131

Set 2
Target: Interferon regulatory factor 5, full length, phosphomimetic (IRF5, Homo sapiens, UniProt Q13568-2, residues 1-514, K96S/S451D/S453D/S456D/S462D)
Method: protein-binding microarray
Molecule type: double-stranded DNA, one strand shown
Matrix: in vitro
Tested at: 250 nM
Setting: 60-bp whole probe
Added: salmon DNA 0.4 mg/ml
Baseline: random background probes
Reading: higher = stronger binding
All sequences stand within: GCCTAGCAC … GTCTTGATTCGCTTGACGCTGCTG
Oligonucleotide	log fluorescence [z-score]
AGGGGACTGACTCTTCAGCACGTGCTA	-0.162
TATAATATATATATTGTTAGGTGCTAG	0.59
GACGGTATCGGTATCGGGGCGTGCTAG	6.04
TTAGATTCCAGTTTCGAGTAGTGCTAG	6.69
TAAGGTATCGGGTATCGGTTAGTGCTA	5.82
TTAGGTATCGGGACTCGGTTAGTGCTA	1.83
TCAGCTTTCCTTTGCTTACTGTGCTAG	0.861
GACGAACTGAGACTGGAGCCGTGCTAG	-0.379
TCAATGATTGGTTGAACACTGTGCTAG	0.0608
TCACGGCTCTAAACTCATACTGTGCTA	-0.0997
GACGGTATCGACCATCGGGACGTGCTA	1.71
CAGCCGCACAGCATGAGTTCGTGCTAG	-0.919
TTAGGTATCGGTATCTGTTAGTGCTAG	7.66

Set 3
Target: CCNB3, cyclin fold, Cln2 fusion (human)
Method: yeast growth competition, sequencing
Matrix: yeast
Setting: weak parent motif
Baseline: not given
Reading: higher = stronger binding
Starting sequence: PKN2 docking peptide (human); VSAVQKLDFSDTM
Variant	normalised enrichment score
S2F	0.317
L7A	0.0103
S2D	-0.102
D8W	0.569
V1D	-0.236
D8E	0.38
K6S	0.245
K6F	-0.0726
V1M	0.258
F9Q	0.228

Single results of other studies
Molecule	target	test	test system	setting	how to read	quantity	value
PhoQ, residues 284 288 289 292 302 303 TNASYF	PhoP, residues 12 14 15 18 19 SMASL (Escherichia coli, UniProt P23836)	Sort-seq, measured: YFP reporter	E. coli	PhoQ-PhoP variant library, added: 10 µM Mg2+	baseline: high Mg2+ state, higher = stronger signaling	fold induction	3.87

Some of these lines once more (set 1):
Oligonucleotide	E-score
CATGATAC	-0.154
GAAATCGC	-0.0345
CTCGTTCC	-0.0793
